# Published values of several laboratories.
# Compare with care: the assays were run in different laboratories.
Compound,method,matrix,temperature,setting,relative to,singlet oxygen quantum yield
CC(C)(C)c1cc(-c2ccc3cccnc3n2)nc(-c2ccc3cccnc3n2)c1.[Cl-].[Cl-].[Ru+2].c1cnc2c(c1)ccc1cccnc12,1O2 phosphorescence,acetonitrile,,excitation maximum 455 nm,Ru(bpy)3(PF6)2,0.06
Cn1cncn1.[Ru+2].c1cc(-c2ccc3ccccc3n2)nc(-c2ccc3ccccc3n2)c1.c1ccc2cc3nc4c5cccnc5c5ncccc5c4nc3cc2c1,,methanol,,irradiation 460 nm,,0.78
CCCCCCCCC1(CCCCCCCC)c2cc(-c3cc4[n+]5c(c3)-c3cccc[n+]3[Ir-3]536([n+]5ccccc5-c5cc(-c7ccccc7)cc([n+]53)-c3cccc[n+]36)[n+]3ccccc3-4)ccc2-c2ccc(-c3cc4[n+]5c(c3)-c3cccc[n+]3[Ir-3]536([n+]5ccccc5-c5cc(-c7ccccc7)cc([n+]53)-c3cccc[n+]36)[n+]3ccccc3-4)cc21.F[P-](F)(F)(F)(F)F.F[P-](F)(F)(F)(F)F.F[P-](F)(F)(F)(F)F.F[P-](F)(F)(F)(F)F.F[P-](F)(F)(F)(F)F.F[P-](F)(F)(F)(F)F,,acetonitrile,,,,22 to 28%
COc1cc(OC)cc(C2=C3C(C)=C(I)C(/C=C/c4c[nH]c5ccc([N+](=O)[O-])cc45)=[N+]3[B-](F)(F)n3c(/C=C/c4c[nH]c5ccc([N+](=O)[O-])cc45)c(I)c(C)c32)c1,DPBF absorbance decrease,DMSO,,,methylene blue,0.34
CC(C)(C)c1cc(-c2ccc3cc4ccccc4nc3n2)nc(-c2ccc3cc4ccccc4nc3n2)c1.[Cl-].[Cl-].[Ru+2].c1ccc2cc3nc4c5cccnc5c5ncccc5c4nc3cc2c1,1O2 phosphorescence,acetonitrile,,excitation maximum 464 nm,Ru(bpy)3(PF6)2,0.05
COc1cc(OC)cc(C2=C3C(C)=C(I)C(C)=[N+]3[B-](F)(F)n3c(/C=C/c4c[nH]c5ccccc45)c(I)c(C)c32)c1,DPBF absorbance decrease,DMSO,,,methylene blue,0.72
CN1CCC(C)(C)c2cc3c(-c4ccc(C(=S)N5CCCCC5)s4)c4ccc(=[N+](C)C)cc-4sc3cc21,1O2 luminescence,air-saturated methanol,,,,< 0.05
COc1cc(OC)cc(C2=C3C(C)=C(I)C(/C=C/c4cccs4)=[N+]3[B-](F)(F)n3c(/C=C/c4cccs4)c(I)c(C)c32)c1,DPBF absorbance decrease,DMSO,,,methylene blue,0.37
CC(=O)N[C@@H](CC[S+](C)[Ru-4]123([S+](C)CC[C@H](NC(C)=O)C(=O)O)[n+]4ccc5ccccc5c4Nc4cccc([n+]41)-c1cccc([n+]12)Nc1c2ccccc2cc[n+]13)C(=O)[O-].F[P-](F)(F)(F)(F)F (stereo partly shown),,CD3OD,298 K,excitation 450 nm,,2.3%
CCCCCCCCC1(CCCCCCCC)c2cc(C#Cc3cc4[n+]5c(c3)-c3cccc[n+]3[Ir-3]536([n+]5ccccc5-4)[n+]4ccccc4-c4cc(-c5ccccc5)cc([n+]43)-c3cccc[n+]36)ccc2-c2ccc(C#Cc3cc4[n+]5c(c3)-c3cccc[n+]3[Ir-3]536([n+]5ccccc5-4)[n+]4ccccc4-c4cc(-c5ccccc5)cc([n+]43)-c3cccc[n+]36)cc21.F[P-](F)(F)(F)(F)F.F[P-](F)(F)(F)(F)F.F[P-](F)(F)(F)(F)F.F[P-](F)(F)(F)(F)F.F[P-](F)(F)(F)(F)F.F[P-](F)(F)(F)(F)F,,acetonitrile,,,,22 to 28%
COc1cc(OC)cc(C2=C3C(C)=C(I)C(C)=[N+]3[B-](F)(F)n3c(/C=C/c4cccs4)c(I)c(C)c32)c1,DPBF absorbance decrease,DMSO,,,methylene blue,0.63
CCN(CC)C(=S)c1ccc(-c2c3ccc(=[N+](C)C)cc-3sc3cc4c(cc23)C(C)(C)CCN4C)s1,1O2 luminescence,air-saturated methanol,,,,< 0.05
[Cl-].[Cl-].[Ru+2].c1cc(-c2ccc3cccnc3n2)nc(-c2ccc3cccnc3n2)c1.c1ccc2cc3nc4c5cccnc5c5ncccc5c4nc3cc2c1,1O2 phosphorescence,acetonitrile,,excitation maximum 464 nm,Ru(bpy)3(PF6)2,0.28

# A few entries again:
Compound,method,matrix,temperature,setting,relative to,singlet oxygen quantum yield
COc1cc(OC)cc(C2=C3C(C)=C(I)C(/C=C/c4c[nH]c5ccc([N+](=O)[O-])cc45)=[N+]3[B-](F)(F)n3c(/C=C/c4c[nH]c5ccc([N+](=O)[O-])cc45)c(I)c(C)c32)c1,DPBF absorbance decrease,DMSO,,,methylene blue,0.34
